Assay results gathered from unrelated publications.
Numbered parts are unrelated; each lists some results of a single study. Changes are numbered by the printed parent chain.

Block 1 — technique: protein-binding microarray; form: double-stranded DNA, one strand shown; matrix: in vitro; tested at: not given; direction: higher = stronger binding
Target: Transcriptional repressor CTCF (CTCF, Homo sapiens, UniProt P49711, residues 1-727, full length assumed)
Sequence of UniProt P49711 (whole entry, looked up): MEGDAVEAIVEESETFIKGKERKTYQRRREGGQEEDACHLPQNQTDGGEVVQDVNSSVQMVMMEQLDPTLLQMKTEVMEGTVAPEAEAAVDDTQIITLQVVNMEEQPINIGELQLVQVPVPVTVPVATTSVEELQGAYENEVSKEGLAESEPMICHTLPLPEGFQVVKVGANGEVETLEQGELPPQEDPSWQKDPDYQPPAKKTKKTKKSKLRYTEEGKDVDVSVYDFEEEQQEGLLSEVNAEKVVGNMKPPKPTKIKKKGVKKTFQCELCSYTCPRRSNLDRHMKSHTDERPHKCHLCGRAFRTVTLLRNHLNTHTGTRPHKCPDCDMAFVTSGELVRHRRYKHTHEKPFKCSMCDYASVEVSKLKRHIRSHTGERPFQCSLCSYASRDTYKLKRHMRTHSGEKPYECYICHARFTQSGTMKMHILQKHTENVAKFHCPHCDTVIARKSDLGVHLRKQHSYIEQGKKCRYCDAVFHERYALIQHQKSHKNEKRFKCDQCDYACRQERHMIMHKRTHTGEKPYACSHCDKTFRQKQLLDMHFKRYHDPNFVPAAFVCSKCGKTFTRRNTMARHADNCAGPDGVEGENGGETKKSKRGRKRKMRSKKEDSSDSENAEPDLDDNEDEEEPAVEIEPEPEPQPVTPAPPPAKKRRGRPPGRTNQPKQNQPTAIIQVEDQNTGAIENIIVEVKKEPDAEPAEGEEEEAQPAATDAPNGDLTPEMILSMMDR
Notes: k-mer, scored over probes, only values ≥0.25
Sequence	E-score
TGGTGTAA	0.264
GTTTATTA	0.252
TAATGCTA	0.311
AATTTACT	0.253
ATTTAAAT	0.281
ATAGCGCG	0.269
ATATATAC	0.332
ACATGCAA	0.269
ATTAAATA	0.338
AACACAAC	0.262
GTGCGCAC	0.363
ACCGCTAA	0.289
AAGTTATT	0.311
ATATACAA	0.321
ATAATTTG	0.292
GAAAAGGC	0.31
ACTAAATA	0.253
ATATTTAA	0.362

Block 2 — technique: protein binding microarray; form: double-stranded DNA, one strand shown; matrix: in vitro; tested at: not given; baseline: not given; direction: higher = stronger binding
Target: Histone acetyltransferase KAT6A, winged helix 2, GST fusion (KAT6A, Homo sapiens, UniProt Q92794, residues 85-181)
Notes: 8-mer, flanks averaged, mean of 2 arrays, mostly near background
Construct (chain): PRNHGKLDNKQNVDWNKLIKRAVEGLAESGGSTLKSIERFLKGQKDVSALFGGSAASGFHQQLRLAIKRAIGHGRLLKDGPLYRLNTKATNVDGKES
Sequence	E-score
AAAATAAC	-0.209
GTATAAAC	0.132
CAGACACC	0.0879
ATTTAAAG	0.0834
CCAACCTA	0.081
AAGACCGA	-0.0576
GCAATCCA	0.0399
AGACCATA	-0.0313
GAAGAATA	-0.0352
AGTATGCC	0.00874
TCCCTCCA	-0.0186
AAGCAGAA	0.0712
CACTATGG	-0.0563
CCCGCAAA	0.17
TAAAACCA	-0.112
GGACTGCC	-0.0654
GGACTGGA	-0.00537
ACGGATCC	0.0582
CGTGTCAA	-0.00688
GCGAGAAC	0.107
ATGGCGAC	-0.0711
TACGAATA	-0.00565
ATACGTAG	-0.16
AATCCGAT	0.0572

Block 3 — technique: RNA Bind-n-Seq; form: RNA; matrix: in vitro; tested at: 365 nM; baseline: no-protein control; direction: higher = stronger binding
Target: RNA binding protein fox-1 homolog 2, RRM domain, GST-SBP tag (RBFOX2, Homo sapiens, UniProt O43251-10, residues 100-194)
Notes: natural RNA segment, single round, ends assumed
Target sequence (chain): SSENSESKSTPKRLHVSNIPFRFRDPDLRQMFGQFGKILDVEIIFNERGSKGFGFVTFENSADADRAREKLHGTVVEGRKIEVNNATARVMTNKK
Sequence	RBNS enrichment (R)
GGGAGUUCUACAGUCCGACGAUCCCCUGGCCUUGCUAUGAGGGAAAGAUUGAAUAAGCAGCGCACAAGGCAUUCUGGUGCACUAACUUGUGCACACACCAGCUCCAGCCUUUGCAGAAUGACAGCUCUUUGUUUGGAAUUCUCGGGUGCCAA	2.11
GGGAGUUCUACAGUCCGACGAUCGUGUCAGACUGUGCCUACUCUGAUGGUAUGUGCCAUUUGUAAAAUAAAAUAGAGCAGAAAAACACAAAAAGAGAACACUGGUUCAGACAUUCAGUGGGCAAGUAAAUUAUUGGAAUUCUCGGGUGCCAA	0.599
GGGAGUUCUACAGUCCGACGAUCAAAAACAUCACAAAGUAGGUCAUUCCAUCACCACCCUUGUCUCUCUACACAUUUUGCCUUUGGGGAUCUGGUUGGGGUUUUGGGUUUUUUGUUGUUGUUGUUUAUUUGUUUGGAAUUCUCGGGUGCCAA	0.538
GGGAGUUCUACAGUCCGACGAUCAGUGUCUUUCUUUGGUGCCUUUCCUGUUCAGCAUUCUCAGCCUGUGGCAGUAAAGAGAAACUUUGCUACACAACAAAAAGCUGCUAAAUCUCCCUCUAUUUUUUUAAAAUUGGAAUUCUCGGGUGCCAA	0.532
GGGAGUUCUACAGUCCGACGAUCUGUGUUGCGUGCCUGCUUAGCAUAUACAAGGGCCUGGGACUGGGCCCCAGUAUGGAAGAAAGACUUAACCUGUGGGAAAAACAAUUAUCUUUUUAAAUAGAGAGCUAUGUUGGAAUUCUCGGGUGCCAA	4.39
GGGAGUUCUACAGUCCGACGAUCUAGGUGGACUUAAAUCCCAACAGGGUCACUUGAUAAUUAUAGCCAUAGAAAUGCAGAUGCAGGUAACUGCUUUUACCCUUUACCGUCCUCAGGUGAGUCUCCUAGAUCAAUGGAAUUCUCGGGUGCCAA	0.348
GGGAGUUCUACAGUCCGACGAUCAGGCACGCUCCUGUCCUCCUCAUUGCCCAGCAGUAGGGAGGGGCAGGGGUAAGGGGACCUGAGGAUAAAGGGUGGGGAAACAGGGUCCCCUGAGGCCUGUGGGGGCUGCAUGGAAUUCUCGGGUGCCAA	1.15
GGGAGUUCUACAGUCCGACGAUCUGAUGGGCGUCCAAGCAGACCACACGGAUCACUGAGGCACUGAUGUAGGCCCCUCUGCAACGACUUCCUUUGCACCAAAGACAACAGUCUACAAGUUUCUACUUUCUUGUUGGAAUUCUCGGGUGCCAA	0.494
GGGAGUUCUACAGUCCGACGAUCUUGGCAUCCUUGCUCAUCCAUUCCUGUCUACCUCCCUUGUUAGUCUAGAUUUCUGGAGUUAUGUUCCCCACAUCCAAAGCCAGUGUCUACAUACAGCUGCCAUGCCCUUUUGGAAUUCUCGGGUGCCAA	0.752
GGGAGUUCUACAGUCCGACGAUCAUUUAUUAUGAAUCAUUUUCCCCUAAUCUGCAUAAAUGAAUUAGAACUGAUUUUAAUAAAAAUAUUCUGUGUAAAAAGUACUCAGAAAAACAUCUAAAGCUGUUGGAGAAUGGAAUUCUCGGGUGCCAA	0.823
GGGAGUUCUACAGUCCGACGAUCGAUUUCCUCUACCUUUUUGCUCUUAAAACUGCUUCUCUGCUCUGAGAAGCACAGCUACCUGCCUUCACUGAAAUAUACCUCAGGCUGAAAUUUGGGGUGGGAUAGCAGGUUGGAAUUCUCGGGUGCCAA	0.321
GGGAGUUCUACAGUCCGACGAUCACUCCUAGCCUUGCCGCCUUCAAUAGAGAAGAAAUCCCUUUGCUAGAUAGGGUCCCCCAGGCAGUCCCCAGUGGCGGGACACAGGGGUCCGGCUGUGGAGCUCCCCUGCCUGGAAUUCUCGGGUGCCAA	0.858

Block 4 — technique: protein-binding microarray; form: double-stranded DNA, one strand shown; matrix: in vitro; tested at: 2540 nM top; notes: 60-bp whole probe; together with: salmon DNA 0.4 mg/ml; baseline: random background probes; direction: higher = stronger binding; all sequences stand within: GCCTAGCAC … GTCTTGATTCGCTTGACGCTGCTG
Target: Interferon regulatory factor 3, full length, phosphomimetic (IRF3, Homo sapiens, UniProt Q14653, residues 1-427, S386D/S396D/S398D/S402D/T404D/S405D)
Sequence of UniProt Q14653 (whole entry, unmodified, looked up): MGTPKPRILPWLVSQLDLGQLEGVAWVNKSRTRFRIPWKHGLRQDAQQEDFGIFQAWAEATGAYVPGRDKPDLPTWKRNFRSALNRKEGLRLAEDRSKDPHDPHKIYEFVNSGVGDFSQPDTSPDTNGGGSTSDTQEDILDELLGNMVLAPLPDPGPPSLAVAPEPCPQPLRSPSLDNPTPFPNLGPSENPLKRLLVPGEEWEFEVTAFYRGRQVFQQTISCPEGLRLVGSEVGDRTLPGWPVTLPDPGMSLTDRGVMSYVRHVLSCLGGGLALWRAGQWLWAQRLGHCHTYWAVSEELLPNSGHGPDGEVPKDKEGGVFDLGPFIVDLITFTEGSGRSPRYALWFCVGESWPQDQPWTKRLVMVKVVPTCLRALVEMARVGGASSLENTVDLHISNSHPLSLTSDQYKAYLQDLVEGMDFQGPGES
Sequence	fitted relative affinity [z-score]
TTAGGTTTGGGTATCGGTTAGTGCTAG	1.01
TCAATTTTGGTTTTCTCACTGTGCTAG	2.18
TTAGATTTCAGTTTCGATAAGTGCTAG	5.74
GACGGTTTCGGGGATCGGGACGTGCTA	3
CCCTTTTAAGTTCTCTGAAGGTGCTAG	3.23
GACGAACTGAGACTGGGGACGTGCTAG	-0.321
GACGGTATCGGGTATCGGAACGTGCTA	2.74
TGTGGCTTAGTTTGTCAAAAAGTGCTA	-0.42
TTAGAAATTTCTTTCTAATTGTGCTAG	1.02
TTAGATATCAGTTTCGATTTGTGCTAG	6.55
TTAGGTTTCGGGTTCCGGTTAGTGCTA	5.25
CCCTGTGTCCACAGCTGGATGTGCTAG	0.153
TCACCTATCTCCTCACAGACTGTGCTA	2.29
TTAGATATCTGTTTCGATTAGTGCTAG	3.71
GTAGATATCAGTATCGATTAGTGCTAG	2.03
TCACTTATCCCTAATCTCACTGTGCTA	1.1
TTACGTATCGGTATCGGTTAGTGCTAG	5.34
GACGAACTGGGGTTGCGAGACGTGCTA	-0.393
GACGGTATCCTTCTCCTCACGTGCTAG	7.18
ATAGGTATCGGACTGGGTTAGTGCTAG	1.12

Block 5 — target: CCNB2, cyclin fold, Cln2 fusion (human); technique: yeast growth competition, sequencing; matrix: yeast; notes: weak parent motif; baseline: not given; direction: higher = stronger binding
Starting sequence: CDC6 docking peptide (human); TLKGRRLVFDNQL; partner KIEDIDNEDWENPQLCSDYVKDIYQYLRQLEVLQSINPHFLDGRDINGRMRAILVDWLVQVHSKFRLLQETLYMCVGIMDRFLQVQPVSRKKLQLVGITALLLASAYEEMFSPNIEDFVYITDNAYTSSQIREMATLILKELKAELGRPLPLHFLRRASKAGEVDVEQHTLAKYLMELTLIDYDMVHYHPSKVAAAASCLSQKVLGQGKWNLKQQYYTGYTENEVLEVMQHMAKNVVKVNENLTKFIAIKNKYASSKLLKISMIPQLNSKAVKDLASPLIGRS
Substitution	normalised enrichment score
TLKFRRLVFDNQL [G4F]	0.026
TLKGFRLVFDNQL [R5F]	0.202
TLKGKRLVLDNQL [R5K F9L]	0.496
TLKGRRLVFDNQH [L13H]	-0.0703
TLSGRRLVFDNQL [K3S]	0.252
TLKGRALVFDNQL [R6A]	-0.0122
TLKGGRLVFDNQL [R5G]	-0.0383
TLKGRRLVFVNQL [D10V]	-0.185
TLKGRRGVFDNQL [L7G]	0.416
TLKGRRLVFDRQL [N11R]	0.766
TLKGRDLVFDNQL [R6D]	-0.563
NLKGRRLVFDNQL [T1N]	-0.393

Other studies, line by line
Substance	target	assay	system	setting	scale	endpoint	value
PhoQ, residues 284 288 289 292 302 303 QWQEDG	PhoP, residues 12 14 15 18 19 VQALL (Escherichia coli, UniProt P23836)	Sort-seq, item: YFP reporter	E. coli	PhoQ-PhoP variant library, together with: 10 µM Mg2+	baseline: high Mg2+ state, higher = stronger signaling	fold induction	15.6

Repeated from above (block 1):
Sequence	E-score
ATTTAAAT	0.281
ATAGCGCG	0.269
ATATATAC	0.332
ACATGCAA	0.269
ATTAAATA	0.338
AACACAAC	0.262
GTGCGCAC	0.363
ACCGCTAA	0.289
AAGTTATT	0.311
ATATACAA	0.321
ATAATTTG	0.292
